Measured values from different studies.
Each numbered part is a random draw from the data of one study; scales do not carry over between parts.

Block 1
Target: Sal-like protein 4, full length isoform A (SALL4, Homo sapiens, UniProt Q9UJQ4, residues 1-1053)
Sequence of UniProt Q9UJQ4 (whole entry, looked up): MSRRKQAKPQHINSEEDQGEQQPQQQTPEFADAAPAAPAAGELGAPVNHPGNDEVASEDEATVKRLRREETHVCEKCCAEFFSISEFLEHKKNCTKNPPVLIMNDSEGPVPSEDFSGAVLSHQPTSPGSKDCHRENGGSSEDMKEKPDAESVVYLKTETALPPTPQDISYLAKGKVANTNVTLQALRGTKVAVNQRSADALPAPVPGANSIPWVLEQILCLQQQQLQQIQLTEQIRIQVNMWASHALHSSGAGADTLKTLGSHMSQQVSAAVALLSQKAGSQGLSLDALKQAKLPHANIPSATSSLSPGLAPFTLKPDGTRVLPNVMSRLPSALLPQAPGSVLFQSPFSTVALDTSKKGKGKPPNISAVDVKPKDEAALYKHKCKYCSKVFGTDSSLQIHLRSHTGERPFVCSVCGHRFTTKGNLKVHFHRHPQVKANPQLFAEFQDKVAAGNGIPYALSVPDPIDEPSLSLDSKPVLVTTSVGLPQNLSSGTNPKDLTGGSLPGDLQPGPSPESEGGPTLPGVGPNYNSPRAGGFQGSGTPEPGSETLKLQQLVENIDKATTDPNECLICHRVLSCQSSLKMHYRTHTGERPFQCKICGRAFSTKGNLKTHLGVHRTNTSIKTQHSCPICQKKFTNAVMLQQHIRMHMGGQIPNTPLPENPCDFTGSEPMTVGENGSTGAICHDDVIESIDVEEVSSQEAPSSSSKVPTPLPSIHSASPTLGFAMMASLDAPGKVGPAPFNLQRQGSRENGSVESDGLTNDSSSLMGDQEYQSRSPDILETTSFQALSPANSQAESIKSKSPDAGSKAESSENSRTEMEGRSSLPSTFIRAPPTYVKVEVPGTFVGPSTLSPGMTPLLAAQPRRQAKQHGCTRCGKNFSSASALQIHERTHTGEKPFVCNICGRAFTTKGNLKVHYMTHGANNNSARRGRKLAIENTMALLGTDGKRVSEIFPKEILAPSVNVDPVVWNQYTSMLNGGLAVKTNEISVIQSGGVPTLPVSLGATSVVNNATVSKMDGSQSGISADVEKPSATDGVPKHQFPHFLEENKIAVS
Technique: universal PBM
Form: double-stranded DNA, one strand shown
Sample: in vitro
Tested at: 600 nM
Notes: 8-mer, flanks averaged, mean of replicates
Reading: higher = stronger binding
Oligonucleotide | E-score
AAGCCAGG | -0.325
CTGTGGAA | -0.0651
ATCGATGG | 0.109
ACTGACAA | 0.0701
GCGCGCCA | -0.127
ACGACATA | 0.104
CGAACGCG | -0.138

Block 2
Target: Interferon regulatory factor 5, full length, phosphomimetic (IRF5, Homo sapiens, UniProt Q13568-2, residues 1-514, K96S/S451D/S453D/S456D/S462D)
Technique: protein-binding microarray
Form: double-stranded DNA, one strand shown
Sample: in vitro
Tested at: 250 nM
Notes: 60-bp whole probe
Added: salmon DNA 0.4 mg/ml
Baseline: random background probes
Reading: higher = stronger binding
All sequences stand within: GCCTAGCAC … GTCTTGATTCGCTTGACGCTGCTG
Oligonucleotide | log fluorescence [z-score]
TTAGCACTGCTTATCCTTTAGTGCTAG | -0.168
TTCAGTCCCCTCTTCTGGATGTGCTAG | 0.101
TTAGGTCTCGGGTTCGGTTAGTGCTAG | 0.139
TTTGTAATCGAAATCTTCATGTGCTAG | 1.78
GACGAACTGAGCCTCGAGACGTGCTAG | -0.301
ATAGGTCTCCTTCTCCTTTAGTGCTAG | -0.126
TTAGGTATCGGGTATCGCTTAGTGCTA | 4.71
GACGAGTCCAGTTTCGAGACGTGCTAG | 5.28
TGTACTCTCTACATGGGCTTGTGCTAG | -0.105
TTAGGTCTCGGTATCGGGTAGTGCTAG | 2.06

Block 3
Target: Histone acetyltransferase KAT6A, winged helix 1, GST fusion (KAT6A, Homo sapiens, UniProt Q92794, residues 1-85)
Technique: protein binding microarray
Form: double-stranded DNA, one strand shown
Sample: in vitro
Tested at: not given
Notes: 8-mer, flanks averaged, mean of 2 arrays, mostly near background
Baseline: not given
Reading: higher = stronger binding
Construct (chain): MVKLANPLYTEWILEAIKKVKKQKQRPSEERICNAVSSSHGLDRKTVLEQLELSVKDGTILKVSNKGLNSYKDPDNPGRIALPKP
Oligonucleotide | E-score
ATGCTGCA | -0.302
AAGTCCGG | 0.0222
CGCTCCTA | 0.134
AGGTTTCC | -0.119
ACCCCCAT | -0.214
AGCTCACT | -0.101
CCCTCTGC | -0.123
TAGGGTGA | -0.28

Mixed results
Substance | target | test | test system | conditions | how to read | quantity | result
PhoQ, residues 284 288 289 292 302 303 HSYLQF | PhoP, residues 12 14 15 18 19 GMGLL (Escherichia coli, UniProt P23836) | Sort-seq, refers to: YFP reporter | E. coli | PhoQ-PhoP variant library, added: 10 µM Mg2+ | baseline: high Mg2+ state, higher = stronger signaling | fold induction | 0.895

Excerpt of the above (block 2):
Oligonucleotide | log fluorescence [z-score]
TTAGCACTGCTTATCCTTTAGTGCTAG | -0.168
GACGAACTGAGCCTCGAGACGTGCTAG | -0.301
